# Assay results gathered from unrelated publications.
# Lines come from different studies, so protocols differ. Values joined by “and” are separate records of one study, mostly repeats; a detail may differ. ± marks the error that the study gave.
# USP14: Ubiquitin carboxyl-terminal hydrolase 14 (USP14, Homo sapiens, UniProt P54578)
# Sequence of UniProt P54578 (whole entry, looked up): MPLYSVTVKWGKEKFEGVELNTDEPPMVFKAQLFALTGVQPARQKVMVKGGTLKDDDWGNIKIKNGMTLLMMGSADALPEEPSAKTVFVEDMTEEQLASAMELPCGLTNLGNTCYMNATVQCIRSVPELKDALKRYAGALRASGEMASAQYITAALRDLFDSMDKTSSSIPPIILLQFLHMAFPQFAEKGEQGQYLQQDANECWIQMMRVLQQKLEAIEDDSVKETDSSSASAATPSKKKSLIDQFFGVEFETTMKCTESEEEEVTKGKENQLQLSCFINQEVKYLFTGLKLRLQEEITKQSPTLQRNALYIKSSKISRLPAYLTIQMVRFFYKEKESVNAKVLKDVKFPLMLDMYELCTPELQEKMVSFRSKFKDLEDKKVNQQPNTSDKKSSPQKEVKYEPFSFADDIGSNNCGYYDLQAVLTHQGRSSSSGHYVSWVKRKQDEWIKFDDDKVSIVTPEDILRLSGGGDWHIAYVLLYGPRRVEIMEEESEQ
# Gria2/Glutamate receptor 3: Gria2/Glutamate receptor 3 (Rattus norvegicus, UniProt P19491+P19492)
# Sequence of UniProt P19491 (whole entry, looked up): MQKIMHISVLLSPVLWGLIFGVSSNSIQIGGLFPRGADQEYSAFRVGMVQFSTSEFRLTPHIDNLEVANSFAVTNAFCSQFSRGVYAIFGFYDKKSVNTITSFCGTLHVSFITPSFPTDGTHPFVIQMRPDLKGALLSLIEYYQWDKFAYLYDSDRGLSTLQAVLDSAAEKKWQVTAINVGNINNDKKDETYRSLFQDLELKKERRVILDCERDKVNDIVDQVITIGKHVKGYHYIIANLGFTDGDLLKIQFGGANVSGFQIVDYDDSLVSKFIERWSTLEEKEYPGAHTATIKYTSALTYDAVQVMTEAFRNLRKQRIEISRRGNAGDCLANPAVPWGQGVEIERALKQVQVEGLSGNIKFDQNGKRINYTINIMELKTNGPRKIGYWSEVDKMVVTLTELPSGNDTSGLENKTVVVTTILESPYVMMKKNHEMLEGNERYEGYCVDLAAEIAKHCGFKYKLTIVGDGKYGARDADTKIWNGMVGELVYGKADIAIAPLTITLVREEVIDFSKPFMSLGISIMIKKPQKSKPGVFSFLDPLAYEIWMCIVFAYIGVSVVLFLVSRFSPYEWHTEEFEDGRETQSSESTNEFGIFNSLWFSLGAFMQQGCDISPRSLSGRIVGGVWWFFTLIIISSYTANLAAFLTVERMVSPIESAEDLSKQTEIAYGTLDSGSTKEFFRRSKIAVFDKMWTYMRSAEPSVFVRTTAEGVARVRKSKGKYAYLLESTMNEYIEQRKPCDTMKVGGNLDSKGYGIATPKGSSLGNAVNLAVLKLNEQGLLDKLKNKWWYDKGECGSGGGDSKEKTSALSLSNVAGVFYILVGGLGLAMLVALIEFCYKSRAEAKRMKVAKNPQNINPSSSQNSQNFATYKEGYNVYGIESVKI
# Sequence of UniProt P19492 (whole entry, looked up): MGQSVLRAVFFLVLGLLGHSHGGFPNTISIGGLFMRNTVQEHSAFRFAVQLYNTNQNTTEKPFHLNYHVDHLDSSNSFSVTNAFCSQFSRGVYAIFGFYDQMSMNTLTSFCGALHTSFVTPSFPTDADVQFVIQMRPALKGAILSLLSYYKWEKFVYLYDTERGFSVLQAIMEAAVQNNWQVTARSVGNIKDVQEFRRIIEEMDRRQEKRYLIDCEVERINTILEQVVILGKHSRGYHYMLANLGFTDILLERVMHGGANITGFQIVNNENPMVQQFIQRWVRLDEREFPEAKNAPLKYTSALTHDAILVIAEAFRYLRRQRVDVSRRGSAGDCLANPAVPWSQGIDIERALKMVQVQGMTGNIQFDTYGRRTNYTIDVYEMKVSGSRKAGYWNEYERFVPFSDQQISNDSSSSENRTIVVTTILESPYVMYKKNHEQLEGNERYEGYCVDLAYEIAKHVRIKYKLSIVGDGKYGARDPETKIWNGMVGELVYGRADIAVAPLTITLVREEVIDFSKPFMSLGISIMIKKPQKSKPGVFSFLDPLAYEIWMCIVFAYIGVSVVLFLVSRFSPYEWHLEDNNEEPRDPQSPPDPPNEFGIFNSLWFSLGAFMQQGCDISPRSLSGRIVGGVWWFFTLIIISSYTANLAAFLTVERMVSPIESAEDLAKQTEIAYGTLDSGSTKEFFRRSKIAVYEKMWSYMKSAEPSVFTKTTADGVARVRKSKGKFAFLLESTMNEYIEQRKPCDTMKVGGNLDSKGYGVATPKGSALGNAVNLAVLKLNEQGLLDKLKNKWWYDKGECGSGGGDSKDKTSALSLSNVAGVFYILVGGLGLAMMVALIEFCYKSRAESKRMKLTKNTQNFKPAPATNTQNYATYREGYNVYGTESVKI
# PPO3: PPO3 (Agaricus bisporus, UniProt C7FF04)
# Sequence of UniProt Q8TDU9 (whole entry, unmodified, looked up): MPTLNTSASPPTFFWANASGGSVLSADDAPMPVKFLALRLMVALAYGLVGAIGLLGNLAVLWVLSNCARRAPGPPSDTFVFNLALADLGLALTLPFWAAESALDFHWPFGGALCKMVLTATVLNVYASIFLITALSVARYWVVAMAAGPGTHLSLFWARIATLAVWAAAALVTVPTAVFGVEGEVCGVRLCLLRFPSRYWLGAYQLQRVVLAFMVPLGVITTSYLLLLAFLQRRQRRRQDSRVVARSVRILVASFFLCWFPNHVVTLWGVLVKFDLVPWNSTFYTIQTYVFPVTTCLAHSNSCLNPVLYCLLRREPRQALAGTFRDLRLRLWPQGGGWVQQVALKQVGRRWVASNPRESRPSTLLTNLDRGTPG
# Sequence of UniProt Q9EP73 (whole entry, looked up): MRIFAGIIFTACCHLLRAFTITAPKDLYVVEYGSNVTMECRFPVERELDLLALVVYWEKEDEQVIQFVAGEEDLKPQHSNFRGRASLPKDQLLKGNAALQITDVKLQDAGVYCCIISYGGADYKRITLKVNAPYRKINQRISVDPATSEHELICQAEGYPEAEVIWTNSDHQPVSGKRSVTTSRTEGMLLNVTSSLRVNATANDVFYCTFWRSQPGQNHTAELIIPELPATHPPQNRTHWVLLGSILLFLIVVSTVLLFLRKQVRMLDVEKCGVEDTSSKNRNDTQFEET
# Sequence of UniProt Q9Y478 (whole entry, looked up): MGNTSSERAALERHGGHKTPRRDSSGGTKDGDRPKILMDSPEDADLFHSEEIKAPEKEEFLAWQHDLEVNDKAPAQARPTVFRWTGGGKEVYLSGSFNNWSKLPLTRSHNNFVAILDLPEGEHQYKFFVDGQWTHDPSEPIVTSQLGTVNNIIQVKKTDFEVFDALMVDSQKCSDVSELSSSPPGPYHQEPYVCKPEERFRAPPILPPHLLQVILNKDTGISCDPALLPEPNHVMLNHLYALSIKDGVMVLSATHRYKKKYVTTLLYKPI
# Sequence of UniProt Q9FLB1 (whole entry, looked up): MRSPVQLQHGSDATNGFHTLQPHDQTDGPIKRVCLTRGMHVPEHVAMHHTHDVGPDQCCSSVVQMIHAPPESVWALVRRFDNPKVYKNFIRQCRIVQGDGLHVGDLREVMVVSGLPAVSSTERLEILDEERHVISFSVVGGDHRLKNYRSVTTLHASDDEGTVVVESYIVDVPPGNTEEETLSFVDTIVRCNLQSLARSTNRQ
# Sequence of UniProt C7FF04 (whole entry, looked up): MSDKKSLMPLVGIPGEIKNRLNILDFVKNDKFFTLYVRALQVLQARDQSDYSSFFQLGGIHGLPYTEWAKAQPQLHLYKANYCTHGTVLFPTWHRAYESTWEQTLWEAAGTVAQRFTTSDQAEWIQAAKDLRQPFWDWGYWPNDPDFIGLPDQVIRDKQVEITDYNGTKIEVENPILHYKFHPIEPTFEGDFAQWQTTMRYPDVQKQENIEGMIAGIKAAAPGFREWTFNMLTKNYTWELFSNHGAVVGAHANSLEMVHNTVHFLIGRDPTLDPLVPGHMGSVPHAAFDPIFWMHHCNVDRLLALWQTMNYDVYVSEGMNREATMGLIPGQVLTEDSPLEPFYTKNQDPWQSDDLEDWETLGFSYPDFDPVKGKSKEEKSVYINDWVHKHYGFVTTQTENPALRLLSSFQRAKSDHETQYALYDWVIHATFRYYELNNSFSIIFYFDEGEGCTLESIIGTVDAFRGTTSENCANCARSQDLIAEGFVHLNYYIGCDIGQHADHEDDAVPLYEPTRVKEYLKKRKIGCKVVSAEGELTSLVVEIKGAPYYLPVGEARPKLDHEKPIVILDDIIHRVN
# Sequence of UniProt Q9H8M2 (whole entry, looked up): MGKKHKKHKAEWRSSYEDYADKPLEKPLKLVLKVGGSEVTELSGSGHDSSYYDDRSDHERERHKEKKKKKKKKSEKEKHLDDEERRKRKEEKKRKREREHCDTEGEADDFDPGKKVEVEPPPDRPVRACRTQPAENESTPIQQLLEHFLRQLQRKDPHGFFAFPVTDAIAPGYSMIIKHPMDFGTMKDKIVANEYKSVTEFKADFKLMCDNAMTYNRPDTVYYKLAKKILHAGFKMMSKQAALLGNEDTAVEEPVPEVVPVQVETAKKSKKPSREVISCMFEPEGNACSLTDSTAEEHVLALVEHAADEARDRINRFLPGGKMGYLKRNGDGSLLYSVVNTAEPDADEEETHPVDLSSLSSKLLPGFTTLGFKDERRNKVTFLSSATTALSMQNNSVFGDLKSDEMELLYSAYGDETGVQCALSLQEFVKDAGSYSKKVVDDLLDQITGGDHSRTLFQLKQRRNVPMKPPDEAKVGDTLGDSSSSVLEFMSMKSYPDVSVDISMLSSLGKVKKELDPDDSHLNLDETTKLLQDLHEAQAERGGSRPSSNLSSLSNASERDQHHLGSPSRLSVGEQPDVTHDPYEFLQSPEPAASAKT
# Sequence of UniProt Q59DX8 (whole entry, unmodified, looked up): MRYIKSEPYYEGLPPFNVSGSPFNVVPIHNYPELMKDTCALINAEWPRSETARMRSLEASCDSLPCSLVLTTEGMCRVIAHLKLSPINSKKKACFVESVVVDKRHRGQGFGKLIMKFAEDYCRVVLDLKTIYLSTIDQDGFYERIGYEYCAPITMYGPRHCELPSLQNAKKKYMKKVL
# Sequence of UniProt P40337 (whole entry, looked up): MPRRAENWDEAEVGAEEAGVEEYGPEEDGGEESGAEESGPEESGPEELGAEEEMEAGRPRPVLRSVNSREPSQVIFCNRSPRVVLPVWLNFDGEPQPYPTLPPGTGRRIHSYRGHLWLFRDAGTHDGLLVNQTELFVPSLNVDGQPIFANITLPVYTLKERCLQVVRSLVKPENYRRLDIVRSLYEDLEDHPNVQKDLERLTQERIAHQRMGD
Compound,target,assay,system,conditions,how to read,endpoint,result
Fc1ccc(Nc2nc(NC3CCCCC3)c3cc(C(F)(F)F)ccc3n2)cc1F,"ADRB2 (Homo sapiens, UniProt P07550, V126A)","β-arrestin2 recruitment, antagonist, BRET",,mutant V126A,baseline: isoprenaline maximal response,maximal inhibition,-5.4%
Cc1ncsc1-c1ccc(CNC(=O)[C@@H]2C[C@@H](O)CN2C(=O)[C@@H](NC(=O)C2(F)CC2)C(C)(C)C)c(OCCC2CCN(c3nc(N(C)CCNC(=O)C(C)C)nc(N4CCn5nnc(CO)c5C4)n3)CC2)c1,"VHL/BRD9 (Homo sapiens, UniProt P40337+Q9H8M2)","BRD9 degradation, degrader, HiBiT",HEK293T BRD9-HiBiT,15 h,,Dmax,78%
CCc1c(-c2ccc3[nH]ncc3c2)cnc(N)c1-c1ccc(O)cc1,"USP7 (Homo sapiens, UniProt Q93009, V517F)","enzyme activity, inhibitor, Ub-AMC",,,baseline: V517F over wild type,IC50 ratio,18
COc1cc(OC)cc(C2C(C#N)=C(N)Nc3oc(C)nc32)c1 (centres unmarked),USP14,"enzyme activity, inhibitor",,17 µM,,inhibition,8%
COc1ncc2nc(C)n(Cc3ncc(S(N)(=O)=O)cc3F)c2c1-c1ccccc1,"HTR2B (Homo sapiens, UniProt P41595)","agonist, cell-based",,10 µM,,activation,7.93%
O=[N+]([O-])c1cc(Br)cc([N+](=O)[O-])c1NS(=O)(=O)c1ccc(Br)cc1,"PYL5, with HAB1 (Arabidopsis thaliana, UniProt Q9FLB1)",antagonist,,"20 µM, together with: ABA 5 µM",higher = more HAB1 activity,HAB1 phosphatase activity,0.09 a.u. and 0.093 a.u. and 0.098 a.u.
CC[C@H](C)[C@@H]1NC(=O)[C@H](Cc2ccccc2)NC(=O)[C@H](CCC(=O)O)NC(=O)[C@H](CCCNC(=N)N)NC(=O)CNC(=O)[C@@H](NC(=O)[C@H](CC(C)C)NC(=O)[C@H](CCCNC(=N)N)NC(=O)[C@@H](NC(=O)CNC(=O)[C@H](Cc2ccc(O)cc2)NC(=O)[C@@H]2CCCN2C(=O)[C@H](C)NC(=O)[C@H](C)NC(=O)[C@@H](N)CCCNC(=N)N)C(C)C)CSSC[C@@H]2NC(=O)[C@@H](NC(=O)[C@H](CO)NC(=O)[C@H](CO)NC(=O)[C@H](CO)NC(=O)[C@H](CC(C)C)NC(=O)CNC(=O)[C@H](C)NC(=O)[C@H](CC(C)C)NC(=O)[C@@H](NC(=O)[C@@H](N)CC(=O)O)C(C)C)CSSC[C@H](NC(=O)CNC(=O)[C@H](Cc3c[nH]c4ccccc34)NC(=O)[C@H](CCCCN)NC2=O)C(=O)N[C@@H](CO)C(=O)N[C@@H](CCCCN)C(=O)N[C@@H](CO)C(=O)N[C@@H](CCC(=O)O)C(=O)N[C@@H]([C@@H](C)CC)C(=O)N[C@@H](CO)C(=O)N[C@@H](CO)C(=O)N[C@@H](CC(C)C)C(=O)N[C@H](C(=O)O)CSSC[C@@H](C(=O)NCC(=O)NCC(=O)N[C@@H](CO)C(=O)N[C@@H](CCCNC(=N)N)C(=O)N[C@@H](Cc2c[nH]c3ccccc23)C(=O)O)NC(=O)[C@H]([C@@H](C)O)NC(=O)[C@H](Cc2ccccc2)NC(=O)[C@H]([C@@H](C)CC)NC(=O)[C@H](C(C)C)NC(=O)[C@H](C)NC(=O)[C@H](CCCNC(=N)N)NC1=O,"RXFP4 (Homo sapiens, UniProt Q8TDU9, Q205A)",agonist,,Q205A mutant,baseline: wild type,change in Emax,-12.8% and -4.18% and -5.65% and -16.4%
C[Si](C)(C)C[C@@H](CN)CC(=O)O,"SIGMAR1 (Homo sapiens, UniProt Q99720)","ligand displacement, radioligand",,75 µM,,inhibition,14%
Cc1cc(Cl)n(-c2ccc(F)cc2)n1,USP14,"enzyme activity, inhibitor",,17 µM,,inhibition,28%
CO[B-]1(OC)n2c(C)cc(C)c2C(CCCN2CC=C(c3ccccc3)CC2)=C2C(C)=CC(C)=[N+]21,"SLC6A9 (Homo sapiens, UniProt P48067)",cell-free assay,,1 µM,,remaining signal,84%
O=C(NN=C1c2ccccc2-c2nc3nonc3nc21)c1ccccc1O,USP14,"enzyme activity, inhibitor",,17 µM,,inhibition,54%
CC[C@H](C)[C@H](NC(=O)[C@H](CC(=O)O)NC(=O)[C@H](CC(=O)O)NC(=O)[C@@H](N)CC(=O)O)C(=O)N[C@@H](C)C(=O)N[C@@H](C)C(=O)N[C@@H](CC(C)C)C(=O)N[C@@H](CCCNC(=N)N)C(=O)N[C@@H](Cc1c[nH]c2ccccc12)C(=O)NCC(=O)N[C@@H](CCCNC(=N)N)C(=O)N1CCC[C@H]1C(=O)N[C@H](C(=O)NCC(=O)N[C@@H](CCCNC(=N)N)C(=O)N[C@@H](CCCNC(=N)N)C(=O)N[C@@H](CCCNC(=N)N)C(=O)N[C@@H](CCCNC(=N)N)C(=O)N1CCC[C@H]1C(=O)N[C@H](C(=O)N[C@@H](CCCNC(=N)N)C(=O)N[C@H](C(=O)N[C@@H](Cc1ccc(O)cc1)C(=O)N1CCC[C@H]1C(=O)O)C(C)C)C(C)C)C(C)C,"N-alpha-acetyltransferase 80 (Naa80, Drosophila melanogaster, UniProt Q59DX8, K83A)","acetyltransferase activity, substrate",,"K73A mutant, together with: [14C]acetyl-CoA",,Km,1460 ± 230 µM
O=C(O)Cc1cc2c(cc1C(=O)c1ccccc1)OCO2,Gria2/Glutamate receptor 3,"glutamate-evoked current, whole-cell patch clamp",HEK-293T,"concentration not given, pH 7.4, holding potential -60 mV, together with: 10 mM glutamate",,current amplitude,245 ± 29 pA
COc1cc(Nc2nccc(-c3cnn4nc(OC)ccc34)n2)cc(C(F)(F)F)c1,"PIK3CA (Homo sapiens, UniProt P42336, M1043I)",binding,,1 µM,,remaining binding,100%
O=C(O)Cc1cc2c(cc1C(=O)c1ccccc1Br)OCO2,Gria2/Glutamate receptor 3,whole-cell patch clamp,HEK-293T,"concentration not given, together with: glutamate",,deactivation time constant,5.5 ± 0.3 ms
N[C@H]1CC[C@H](Nc2nccc(-c3cccnc3Oc3ccc(NC(=O)NC4CC4)c4ccccc34)n2)CC1,"PRKAB1 (Homo sapiens, UniProt Q9Y478)",kinobead competition pulldown,HEK293/HCT116 lysate mixture,"10 µM, 1 h, 4 °C",lower = stronger competition,log2 LFQ intensity,29 and 28.9 and 28.8 and 29.1
CCCCCC(O)/C=C/C=O (centres unmarked),"60 kDa heat shock protein, mitochondrial (Homo sapiens, UniProt P10809)","competitive isoTOP-ABPP, refers to: HSPD1 cysteine peptide","proteome, soluble, MDA-MB-231","100 µM, together with: iodoacetamide probe","baseline: DMSO over compound-treated, higher = stronger cysteine blockade",isoTOP-ABPP competition ratio,2.2
Clc1ccccc1-c1cc(CN2c3ccccc3C=Cc3ccccc32)on1,PPO3,"enzyme activity, inhibitor",,concentration not given,,apparent Vmax,32 µmol/min
CC[C@@H](C)[C@@H](NC(=O)[C@@H](Cc1ccc(O)cc1)NC(=O)[C@H]1CCCN1C(=O)[C@@H](CCCNC(=N)N)NC(=O)[C@H](N)Cc1c[nH]cn1)C(=O)N[C@H](C)C(=O)N[C@H](Cc1c[nH]cn1)C(=O)N[C@H](CCCNC(=N)N)C(=O)N[C@@H](C(=O)N[C@H](Cc1ccc(O)cc1)C(=O)N[C@H](CO)C(=O)N[C@H](Cc1ccccc1)C(=O)NCC(=O)NCC(=O)NCC(=O)N[C@@H](CCCCNC(=O)CCCC[C@@H]1SC[C@@H]2NC(=O)N[C@@H]21)C(N)=O)C(C)C,"Cd274 (Mus musculus, UniProt Q9EP73)",flow cytometry,mPD-L1-expressing cells,concentration not given,,binding rate,8.99% and 9.31%
OC[C@H]1O[C@@H](Oc2cc3c(O)cc(O)cc3[o+]c2-c2cc(O)c(O)c(O)c2)[C@H](O)[C@@H](O)[C@H]1O,PPO3,fluorescence quenching,,"concentration not given, 298 K",,number of binding sites,1.12
CCCC[C@H](NC(=O)[C@H](CCC(N)=O)NC(=O)[C@H](CCC(=O)O)NC(=O)[C@@H]1CCCN1C(=O)[C@@H](NC(=O)[C@H](C)NC(=O)[C@H](CC(N)=O)NC(=O)[C@H](CC(=O)O)NC(=O)CNC(=O)[C@@H]1CCCN1C(=O)[C@H](Cc1ccc(O)cc1)NC(=O)[C@@H](NC(=O)[C@@H]1CCCN1C(=O)[C@H](CCC(=O)O)NC(=O)[C@H](CC(C)C)NC(=O)[C@@H]1CCCN1C(=O)[C@H](C)N)C(C)C)[C@@H](C)O)C(=O)N[C@@H](C)C(=O)N[C@@H](CCC(N)=O)C(=O)N[C@@H](Cc1ccc(O)cc1)C(=O)N[C@@H](C)C(=O)N[C@@H](CCCCNC(=O)c1ccc2c(c1)C(=O)OC21c2ccc(N(C)C)cc2Oc2cc(N(C)C)ccc21)C(=O)N[C@@H](CC(=O)O)C(=O)N[C@@H](CC(C)C)C(=O)N[C@@H](CCCNC(=N)N)C(=O)N[C@@H](CCCNC(=N)N)C(=O)N[C@@H](Cc1ccc(O)cc1)C(=O)N[C@H](C(=O)N[C@@H](CC(N)=O)C(=O)N[C@@H](CCCC)C(=O)N[C@@H](CC(C)C)C(=O)N[C@H](C(=O)N[C@@H](CCCNC(=N)N)C(=O)N1CCC[C@H]1C(=O)N[C@@H](CCCNC(=N)N)C(=O)N[C@@H](Cc1ccc(O)cc1)C(N)=O)[C@@H](C)O)[C@@H](C)CC,"NPY4R (Homo sapiens, UniProt P50391, Q121A)",NanoBRET binding,,"Nluc-tagged receptor Q121A, unit not given",net BRET ratio,BRETmax,0.043 ± 0.0008
CC(C=CC=C(C)C=CC1=C(C)CCCC1(C)C)=CC=O,"Rhodopsin (RHO, Homo sapiens, UniProt P08100, E181K)","ER retention, immunostaining co-localization, refers to: opsin with calnexin",COS-7 transfected E181K,10.00 µM,,Pearson correlation coefficient,0.59
C#CCOC(=O)[C@@]1(C)C=C(C(=O)Nc2cccc(C(=O)Nc3ccc(C)c(Nc4nccc(-c5cccnc5)n4)c3)c2)C(=O)CC1,"MAPK9 (Homo sapiens, UniProt P45984)","enzyme activity, inhibitor",,"4.938 µM, unit not given",baseline: vehicle,remaining activity,0.0842

# A few entries again:
Compound,target,assay,system,conditions,how to read,endpoint,result
Clc1ccccc1-c1cc(CN2c3ccccc3C=Cc3ccccc32)on1,PPO3,"enzyme activity, inhibitor",,concentration not given,,apparent Vmax,32 µmol/min
